Published values gathered from unrelated publications.
Protocols differ between the studies behind these lines. Values joined by “and” are separate records of one study, mostly repeats; a detail may differ. ± gives the spread as reported.

| Molecule | target | assay | system | conditions | IC50 |
| --- | --- | --- | --- | --- | --- |
| CCCn1cnc2ccc(/C=C/C(=O)NO)cc2c1=O | histone deacetylase | enzyme activity, inhibitor | HeLa nuclear extract | – | 925 ± 30 nM |
| O=C(NO)c1ccc(NC(=O)[C@@H](NC(=O)c2ccc(F)cc2)c2ccccc2)cc1 | HDAC (HeLa nuclear extract) | enzyme activity, inhibitor | – | – | 25.5 ± 1.6 nM |
| CC(C)C[C@H](NC(=O)[C@@H](NC(=O)N[C@H](C(=O)OC(C)(C)C)C(C)C)C(C)C)C(=O)N[C@@H](CC(C)C)C(=O)[C@@]1(C)CO1 | rabbit 26S proteasome beta2 | trypsin-like activity | – | 30 min, 37 °C, with: Ac-RLR-AMC | > 300 nM |
| C/C(=N\C#N)N(C)Cc1ccc(Cl)nc1 | mAb-19F2 (BALB/c mouse monoclonal antibody) | antibody binding, indirect competitive ELISA | – | – | > 1 µg/mL |
| O=C(/C=C/c1ccc2c(=O)n(Cc3cccc(F)c3)cnc2c1)NO | histone deacetylase | enzyme activity, inhibitor | HeLa nuclear extract | – | 96 ± 1 nM |
| CCN(Cc1ccc(Cl)nc1)/C(=C/[N+](=O)[O-])NC | mAb-19F2 (BALB/c mouse monoclonal antibody) | antibody binding, indirect competitive ELISA | – | – | > 1 µg/mL |
| O=C(/C=C/c1ccc2c(=O)n(Cc3ccccc3F)cnc2c1)NO | histone deacetylase | enzyme activity, inhibitor | HeLa nuclear extract | – | 98 ± 2 nM |
| pneumocandin B0 | 1,3-beta-D-glucan synthase (Candida albicans ATCC 10231) | enzyme activity, inhibitor | membrane preparation | 60 min, pH 7.5, 30 °C, with: UDP-[14C]-glucose 1 mM | 3.43 ± 1.09 µg/mL |
| CCCCn1cnc2cc(/C=C/C(=O)NO)ccc2c1=O | histone deacetylase | enzyme activity, inhibitor | HeLa nuclear extract | – | 124 ± 12 nM |
| pneumocandin J | 1,3-beta-D-glucan synthase (Candida albicans ATCC 10231) | enzyme activity, inhibitor | membrane preparation | 60 min, pH 7.5, 30 °C, with: UDP-[14C]-glucose 1 mM | 4.26 ± 0.9 µg/mL |
| Nc1ncnc2c1ncn2[C@@H]1O[C@H](COP(=O)(O)OP(=O)(O)OP(=O)(O)O)[C@@H](O)[C@H]1O | SUR2A entire Q/N mutant/Kir6.2 | KATP channel current, inhibitor, inside-out patch clamp | HEK293 | without Mg2+ | 15000 ± 2600 nM |
| CN1COCN(Cc2cnc(Cl)s2)/C1=N\[N+](=O)[O-] | mAb-19F2 (BALB/c mouse monoclonal antibody) | antibody binding, indirect competitive ELISA | – | – | > 1 µg/mL |
| CC(C)(C)c1ccc(S(=O)(=O)N[C@H](C(=O)Nc2ccc(C(=O)NO)cc2)c2ccccc2)cc1 | HDAC (HeLa nuclear extract) | enzyme activity, inhibitor | – | – | 105 nM and 106 nM |
| O=C(/C=C/c1ccc2c(=O)n(Cc3ccc(Cl)cc3)cnc2c1)NO | histone deacetylase | enzyme activity, inhibitor | HeLa nuclear extract | – | 41 to 44 nM |
| O=C(NO)c1ccc(NC(=O)[C@@H](NC(=O)c2ccccc2Cl)c2ccccc2)cc1 | HDAC (HeLa nuclear extract) | enzyme activity, inhibitor | – | – | 95.5 ± 4.6 nM |
| N#Cc1c(-c2ccc(F)cc2)c(-c2ccc(F)cc2)nn(Cc2nn[nH]n2)c1=O | tubulin (bovine) | microtubule assembly, inhibitor | – | MAP-dependent | 1900 ± 110 nM |
| Cc1ccc(NC(=O)CCCCCC(=O)Nc2ccccc2N)cc1 | HDAC (HeLa nuclear extract) | enzyme activity, inhibitor | – | – | 1300 nM |
| CN/C(=N\[N+](=O)[O-])NCc1cnc(Cl)s1 | mAb-19F2 (BALB/c mouse monoclonal antibody) | antibody binding, indirect competitive ELISA | – | – | > 1 µg/mL |

| Molecule | target | assay | system | conditions | IC50 |
| --- | --- | --- | --- | --- | --- |
| Cc1cn([C@H]2C[C@H](O)[C@@H](CO)O2)c(=O)[nH]c1=O | nucleoside transporters | gemcitabine flux | mouse, jejunum in situ perfusion | with: gemcitabine 5 µM | 98500 nM |
| O=C(NO)c1ccc(NC(=O)[C@@H](NS(=O)(=O)c2cccc3ccccc23)c2ccccc2)cc1 | HDAC (HeLa nuclear extract) | enzyme activity, inhibitor | – | – | 15.6 ± 1.1 nM |
| pneumocandin I | 1,3-beta-D-glucan synthase (Candida albicans ATCC 10231) | enzyme activity, inhibitor | membrane preparation | 60 min, pH 7.5, 30 °C, with: UDP-[14C]-glucose 1 mM | 5.67 ± 1.06 µg/mL |
| O=c1[nH]c(=O)c2[nH]c(=O)[nH]c2[nH]1 | human α-synuclein | peroxynitrite-induced nitration, inhibitor, ELISA | – | with: α-synuclein 1 µM | 63000 nM |
| CCn1cnc2cc(/C=C/C(=O)NO)ccc2c1=O | histone deacetylase | enzyme activity, inhibitor | HeLa nuclear extract | – | 68 ± 1 nM |
| Cc1c(-c2ccc(C(=N)N)cc2)oc(-c2ccc(C(=N)N)cc2)c1C | NQO2 | protection from toxicity | MDA-MB-468 | 3 h, with: CB1954 100 µM plus NRH 100 µM | 18000 ± 16000 nM |
| O=C(/C=C/c1ccc2ncn(CCO)c(=O)c2c1)NO | histone deacetylase | enzyme activity, inhibitor | HeLa nuclear extract | – | 974 ± 31 nM |
| O=C(NO)c1ccc(NC(=O)[C@@H](NS(=O)(=O)c2c(F)cccc2F)c2ccccc2)cc1 | HDAC (HeLa nuclear extract) | enzyme activity, inhibitor | – | – | 60.2 ± 4.7 nM |
| O=C(/C=C/c1ccc2c(=O)n(CCO)cnc2c1)NO | histone deacetylase | enzyme activity, inhibitor | HeLa nuclear extract | – | 91 ± 5 nM |
| Nc1nc(N)nc(NC2CC2)n1 | mAb-19F2 (BALB/c mouse monoclonal antibody) | antibody binding, indirect competitive ELISA | – | – | > 1 µg/mL |
| NC[C@@H]1O[C@H](O[C@H]2[C@@H](O)[C@H](O[C@@H]3[C@@H](O)[C@H](N)C[C@H](N)[C@H]3O[C@H]3O[C@H](CO)[C@@H](O)[C@H](O)[C@H]3N)O[C@@H]2CO)[C@H](N)[C@@H](O)[C@@H]1O | Leishmania tarentolae ribosome | cell-free translation, inhibitor, item: EGFP reporter | Leishmania tarentolae S30 extract | – | 3930 nM and 3900 nM |
| COc1ccccc1NC(=O)N[C@H](C(=O)Nc1ccc(C(=O)NO)cc1)c1ccccc1 | HDAC (HeLa nuclear extract) | enzyme activity, inhibitor | – | – | 7.5 ± 0.2 nM |
| CCOC(=O)NCCOc1ccc(Oc2ccccc2)cc1 | mAb-19F2 (BALB/c mouse monoclonal antibody) | antibody binding, indirect competitive ELISA | – | – | > 1 µg/mL |
| O=C(Cc1ccccc1)N[C@H](C(=O)Nc1ccc(C(=O)NO)cc1)c1ccccc1 | HDAC (HeLa nuclear extract) | enzyme activity, inhibitor | – | – | 34.6 ± 2.4 nM |
| N=C(N)c1ccc(OCCCCCOc2ccc(C(=N)N)cc2)cc1 | acid-sensing ion channel | ion current, whole-cell voltage clamp | mouse hippocampal neurons | holding potential -60 mV, with: pH 5.8 | 38000 nM |
| O=C(NO)c1ccc(NC(=O)[C@@H](NC(=O)c2ccc(Cl)cc2)c2ccccc2)cc1 | HDAC (HeLa nuclear extract) | enzyme activity, inhibitor | – | – | 349 nM and 348 nM |
| CC(C)C[C@H](NC(=O)[C@@H](NC(=O)N[C@H](C(=O)OC(C)(C)C)C(C)C)C(C)C)C(=O)[C@@]1(C)CO1 | rabbit 26S proteasome beta2 | trypsin-like activity | – | 30 min, 37 °C, with: Ac-RLR-AMC | > 30000 nM |

Some of these lines once more:
| Molecule | target | assay | system | conditions | IC50 |
| --- | --- | --- | --- | --- | --- |
| O=C(NO)c1ccc(NC(=O)[C@@H](NC(=O)c2ccc(Cl)cc2)c2ccccc2)cc1 | HDAC (HeLa nuclear extract) | enzyme activity, inhibitor | – | – | 349 nM and 348 nM |
| Cc1cn([C@H]2C[C@H](O)[C@@H](CO)O2)c(=O)[nH]c1=O | nucleoside transporters | gemcitabine flux | mouse, jejunum in situ perfusion | with: gemcitabine 5 µM | 98500 nM |
| pneumocandin I | 1,3-beta-D-glucan synthase (Candida albicans ATCC 10231) | enzyme activity, inhibitor | membrane preparation | 60 min, pH 7.5, 30 °C, with: UDP-[14C]-glucose 1 mM | 5.67 ± 1.06 µg/mL |
| CCN(Cc1ccc(Cl)nc1)/C(=C/[N+](=O)[O-])NC | mAb-19F2 (BALB/c mouse monoclonal antibody) | antibody binding, indirect competitive ELISA | – | – | > 1 µg/mL |
| NC[C@@H]1O[C@H](O[C@H]2[C@@H](O)[C@H](O[C@@H]3[C@@H](O)[C@H](N)C[C@H](N)[C@H]3O[C@H]3O[C@H](CO)[C@@H](O)[C@H](O)[C@H]3N)O[C@@H]2CO)[C@H](N)[C@@H](O)[C@@H]1O | Leishmania tarentolae ribosome | cell-free translation, inhibitor, item: EGFP reporter | Leishmania tarentolae S30 extract | – | 3930 nM and 3900 nM |
